Results of several laboratories.
Protocols differ between the studies behind these lines. ± marks the error that the study gave.

| Compound | assay | system | setting | how to read | measurement | result |
| --- | --- | --- | --- | --- | --- | --- |
| O=C(c1ccc(C2CCCCC2)cc1)N1CC(O)C1 | liver microsome stability | dog liver microsomes | 1 µM |  | hepatic clearance | 27 mL/min/kg |
| Cc1ccc([C@@H]2O[C@H](CO)[C@@H](O)[C@H](O)[C@H]2O)cc1Cc1ccc(-c2ccc(F)cc2)s1 |  | human, maintenance hemodialysis patients | oral, 100 mg once daily, steady state, mean |  | volume of distribution | 180 L |
| C=CC[C@@H]1/C=C(\C)C[C@H](C)C[C@H](OC)[C@H]2O[C@@](O)(C(=O)C(=O)N3CCCC[C@H]3C(=O)O[C@H](/C(C)=C/[C@@H]3CC[C@@H](O)[C@H](OC)C3)[C@H](C)[C@@H](O)CC1=O)[C@H](C)C[C@@H]2OC | LC-MS/MS | rat, whole blood | intraperitoneal, 0.5 mg/kg/day, 18 days |  | trough blood level | 2.4 ± 0.6 µg/L |
| CSCC[C@H](NC(=O)[C@@H](N)CCSC)C(=O)N[C@@H](CCCNC(=N)N)C(=O)N[C@@H](Cc1c[nH]c2ccccc12)C(=O)N[C@@H](CO)C(=O)N[C@@H](CCCNC(=N)N)C(=O)N[C@@H](CCCCN)C(=O)N[C@@H](CCSC)C(=O)N1CCC[C@H]1C(=O)N[C@@H](CS)C(=O)N[C@H](C(=O)N[C@@H](CO)C(N)=O)C(C)C | 12G5 competition, SUP-T1 cells | human plasma | 20 µM, 8 h, 37 °C |  | remaining activity | 1 ± 0.3% |
| COc1cc(Nc2ncc3c(n2)-c2ccc(Cl)cc2C(c2c(F)cccc2OC)=NC3)ccc1C(=O)O |  | cancer patients | oral, dose not given, all grades any attribution, together with: pembrolizumab |  | patients with decreased leukocytes | 50% |
| Cc1cc(Nc2ccc(S(F)(F)(F)(F)F)cc2)n2nc(C(C)(F)F)nc2n1 | LC-MS/MS | human vivax malaria patients, plasma | oral, 400 mg, mean |  | AUC(0-168 h) | 657000 ng·h/mL |
| Cl.N=C(CC(O)c1cc2c(F)cc(F)cc2c2cc(C(F)(F)F)ccc12)Nc1ccc(Br)cc1 (stereo not drawn) |  | human plasma | 2.5 ng/mL, 24 h, 37 °C |  | degradation | 43.5% |
| O=C(COc1ccc(Cl)cc1)NC12CC(c3nnc([C@H]4C[C@@H](OC(F)(F)F)C4)o3)(C1)C2 | abdominal discomfort | human, both sexes | oral, 400 mg, single ascending dose | baseline: subjects | treatment-emergent adverse events | 16.7% |
| CN1CCN(C(=O)c2ccc(C3CCCCC3)cc2)CC1=O | liver microsome stability | mouse liver microsomes | 1 µM |  | hepatic clearance | 71 mL/min/kg |
| Cc1nc2cccc(OCC(C)(C)C(=O)NC(C)C)c2c(N)c1C(=O)O |  | Sprague-Dawley rat, male, plasma | oral, 30 mg/kg, day 7 over day 1, 7-day repeated dosing | baseline: day 7 over day 1 | Cmax ratio | 0.83 ± 0.28 |
| CCCOc1ccc(NC(=O)CN2CCN(C)CC2)cc1-c1nc(CC)c(CC)c(=O)[nH]1 | least-squares mean difference | healthy Chinese men | 10 mg, supine or semi-supine, together with: alcohol 0.5 g/kg | baseline: compound plus placebo | maximal systolic BP decrease difference | -2.31 mmHg |
| C=CC(=O)Nc1cc(Nc2nccc(-c3cn(C)c4ccccc34)n2)c(OC)cc1N(C)CCN(C)C | storage stability | human dried blood spot | 2 h, on ice, MQC level |  | recovery | 86.3% |
| O=C(NCCc1cccnc1)c1ccc([C@H]2[C@@H](F)[C@@H](F)C[C@@H](F)[C@H]2F)cc1 | liver microsome stability | dog liver microsomes | 1 µM |  | hepatic clearance | 23 mL/min/kg |
| N#Cc1ccc2c(c1)[C@H]1CCCN(C(=O)c3ccc4[nH]cnc4c3)[C@H]1C2 |  | human | 360 mg, day 15 | baseline: baseline | cortisol level change | 85 nmol/L |
| Cc1ccc(S(=O)(=O)N(CC#N)C(=O)Cc2cc(C(F)(F)F)cc(C(F)(F)F)c2)cc1 | chemical stability, HPLC-MS | borate buffered saline | pH 10.2, no N-acetyl-lysine |  | degradation rate constant | 4 h⁻¹ |
| CN[C@H](CC(C)C)C(=O)N[C@H]1C(=O)N[C@@H](CC(N)=O)C(=O)N[C@H]2C(=O)N[C@H]3C(=O)N[C@H](C(=O)N[C@H](C(=O)O)c4cc(O)cc(O)c4-c4cc3ccc4O)[C@H](O)c3ccc(c(Cl)c3)Oc3cc2cc(c3O[C@@H]2O[C@H](CO)[C@@H](O)[C@H](O)[C@H]2O[C@H]2C[C@](C)(N)[C@H](O)[C@H](C)O2)Oc2ccc(cc2Cl)[C@H]1O |  | guinea pig | intraperitoneal, 15 mg/kg, single dose | baseline: tissue cage fluid over serum | half-life ratio | ~5 |
| CCc1cc(C(=O)NC)c2nccc(N3CCc4c(cc(Cn5ccnc5)cc4-c4cn(C)nc4C(F)(F)F)C3=O)c2c1 | refers to: CK | Sprague Dawley rat | oral, 100 mg/kg once daily, 7 days | baseline: vehicle | change in clinical chemistry or haematology parameter | -26.8% |
| CCN1CCN(Cc2ccc(NC(=O)c3ccc(C)c(NC(=O)c4cncc(-c5cccs5)c4)c3)cc2C(F)(F)F)CC1 | LC-MS/MS | C57BL/6 mouse, plasma | intraperitoneal, 20 mg/kg single dose, 1 h |  | mean plasma concentration | 482 ng/mL |
| CN(CCCN1CCN(C(=O)CN2CCN(CC(=O)[O-])CCN(CC(=O)[O-])CCN(CC(=O)[O-])CC2)CC1)c1ccc2nccc(C(=O)NCC(=O)N3CC(F)(F)C[C@H]3C#N)c2c1.[68Ga+3] |  | mice, HT-1080.hFAP and HT-1080 wild-type xenografts, liver | iv, 500 pmol, 1 h post injection |  | uptake | 0.4 ± 0.1 %IA/g |

| Compound | assay | system | setting | how to read | measurement | result |
| --- | --- | --- | --- | --- | --- | --- |
| O=C(Nc1ccc(Cl)cc1)Nc1ccc(Cl)c(Cl)c1 |  | whole cow milk | 200 nM nominal |  | dose fraction in skim milk | 10.5% |
| Cc1cc(-c2nccc3c2ccn3CC(=O)Nc2ccc(-c3cnccn3)cn2)ccn1 |  | human | SAD part, single 40 mg dose |  | subjects with Vomiting TEAEs | 16.7% |
| Cc1ccc(O[C@@H]2O[C@H](C(=O)O)[C@@H](O)[C@H](O)[C@H]2O)cc1 | ultrafiltration | normal rat serum | 37 °C |  | serum protein binding | 45 ± 30% |
| CN(C)CCC(=O)Nc1ccc(C2CCCCC2)cc1 | hepatocyte stability | cryopreserved mouse hepatocytes | 1 µM |  | hepatic clearance | 71 mL/min/kg |
| Cn1cc(Nc2nccc(-c3ccc4c(c3)CN(C3COC3)CC[C@H]4NC(=O)c3cn(C(C)(C)C)nn3)n2)cn1 |  | human, whole blood | 50 mg twice daily, day 14 | baseline: pre-dose baseline | CD3+ T cell count change | 1.43% |
| CCOc1c([C@H](C)n2nc(C)c3c(N)ncnc32)cc(Cl)c(F)c1[C@@H]1CNC(=O)C1 |  | patients with B-cell malignancies, plasma | oral, 20 mg once daily, cycle 1 day 15, monotherapy |  | Cmin | 146 nM |
| O=C(Nc1nc2cccc(-c3ccc(CN4CCS(=O)(=O)CC4)cc3)n2n1)C1CC1 | refers to: hypercholesterolaemia | human rheumatoid arthritis patients | oral, 30 mg once daily, 4 weeks, regardless of relatedness |  | treatment-emergent adverse events | 0% |
| O=C(N[C@H](Cc1c[nH]c2ccccc12)C(=O)Nc1ccncc1)c1ccc(-c2cc(C(F)(F)F)ccc2F)cc1F |  | Swiss Webster mouse, female, plasma | oral, 50 mg/kg, 8 h, 20% HPβCD vehicle |  | concentration | 310 nM |
| COc1ccnc(C(=O)O)c1O | soil adsorption | soil | pH 6.9, organic carbon 0.8 % |  | KFoc | 26000 mL/g |
| Cn1nc2c(=O)n(C3CC3)cnc2c1[C@](O)(c1cnc(C(F)(F)F)c(Cl)c1)C(F)(F)F |  | humanized SCID mice, blood | 3 mg/kg once daily, 6 days, infected |  | AUC(0-96 h) | 90.8 µM·h |
| CC(C)(C(=O)N1CCOc2c(C#N)cncc2C1)C(F)F | refers to: skin irritation | healthy humans, both sexes | oral, 40 mg single dose |  | subjects with TEAE | 0% |
| O=C(O)CCCOc1ccc([18F])cc1-c1cc(-c2ccccc2C(F)(F)F)n(-c2ccccc2)n1 | gamma counting | male ddY mice, pancreas | intravenous, 2.1 MBq, 60 min |  | radioactivity uptake | 0.21 ± 0.02 SUV |
| Cc1cc(NC2CCN(C(=O)OC3CCN(C(=O)/C=C/CN(C)C)C3)CC2)n2ncc(C(C)C)c2n1 (stereo not drawn) | CTCAE v4.0, refers to: Dizziness | patients with advanced solid tumours | oral, dose not given, all schedules, grade 3 or higher |  | patients with TEAE | 0% |
| C#C[C@]1(O)CC[C@H]2[C@@H]3CCC4=CC(=O)CC[C@@H]4[C@H]3CC[C@@]21C |  | HIV-infected women without protease inhibitor, serum | oral, 0.35 mg, steady state |  | Cmin geometric mean | 0.13 ng/mL |
| CC(=O)N[C@@H](CS)C(=O)O |  | human | oral, 1.2 g |  | true systemic bioavailability | 78.1% |
| Cn1ncnc1[C@H]1c2n[nH]c(=O)c3cc(F)cc(c23)N[C@@H]1c1ccc(F)cc1 |  | human patients, plasma | oral, 600 µg/m2 twice daily day 1, day 5, dose level DL5, median, together with: temozolomide 40 mg/m2 daily days 2-6 |  | AUC(0-8h) | 109 ng·h/mL |
| Cc1cnc(N2CC3(CCOCC3)C2)c(C(=O)Nc2ccc(C(=O)N3CCc4cc(C(=O)Nc5c(C)cccc5F)sc4-c4ccccc43)cc2)c1 |  | dog plasma |  |  | fu | 0.01 |
| CC(C)Cn1cnc2c(N)nc3ccccc3c21 |  | C57BL/6J CYP1A-knockout male mice, corn oil-treated, liver microsomes | 1 µM, 45 min | baseline: control | remaining compound | 37% |
| O=C(NCCN1CCCC1=O)c1ccc(C2CCCCC2)cc1 | liver microsome stability | human liver microsomes | 1 µM, without NADPH |  | hepatic clearance | 3.9 mL/min/kg |

| Compound | assay | system | setting | how to read | measurement | result |
| --- | --- | --- | --- | --- | --- | --- |
| c1ccc(-c2nc(N3CCC(c4ccccn4)C3)c3ccccc3n2)nc1 (stereo not drawn) |  | female Balb/c mice, plasma | intravenous, 2 mg/kg, mean, together with: ABT 2 h prior |  | MRT(0-last) | 2.7 h |
| CC(C)C[C@H](N)C(=O)N[C@@H](Cc1c[nH]c2ccccc12)C(=O)N[C@@H](Cc1c[nH]c2ccccc12)C(=O)N[C@@H](CCCNC(=N)N)C(=O)N[C@@H](Cc1c[nH]c2ccccc12)C(=O)N[C@@H](Cc1c[nH]c2ccccc12)C(=O)N[C@@H](CCCNC(=N)N)C(=O)N[C@@H](Cc1c[nH]c2ccccc12)C(=O)N[C@@H](CCCNC(=N)N)C(=O)O | circular dichroism | 30 mM SDS |  |  | beta-sheet content | 22% |
| Cc1ccc(Sc2ccccc2N2CCNCC2)c(C)c1 | refers to: Pollakiuria | healthy adult women | oral, 10 mg daily, 12 days |  | participants with TEAE | 0% |
| C[C@@H](Oc1ccc(S(C)(=O)=O)cc1C(=O)N1C[C@@H]2C[C@]2(c2cc(C(F)(F)F)on2)C1)C(F)(F)F | radioprofiling | human, plasma | oral, 25 mg, mean |  | AUC(0-168 h) | 14.2 µM·h |
| CCn1cc(C(=O)N2CCOCC2)c(=O)c2cc(NC3Cc4ccccc4C3)cnc21 |  | human, fasted | oral suspension, 600 mg single dose, arithmetic mean |  | AUC(0-last) | 5080 ng·h/mL |
| CN1C(=O)[C@@H](NC(=O)c2nnc(Cc3ccccc3)[nH]2)COc2cccnc21 |  | healthy human, fasted, plasma | oral, 100 mg single dose, median |  | Tmax | 3.5 h |
| CNCc1ccc(-c2[nH]c3cc(F)cc4c3c2CCNC4=O)cc1 |  | human patients | oral, 480 mg twice daily, all grades |  | pulmonary embolism incidence | 0% |
| Cc1ccc([C@@H]2O[C@H](CO)[C@@H](O)[C@H](O)[C@H]2O)cc1Cc1ccc(-c2ccc(F)cc2)s1 |  | Japanese type 2 diabetes patients | 200 mg, day 15, 24 h urine collection | baseline: baseline | urinary chloride excretion change | 7.19 mEq |
| O=C1CCc2ccc(OCCCCN3CCN(c4cccc(Cl)c4Cl)CC3)cc2N1 | refers to: Hypertension | patients, CYP2D6 normal metabolizers | dose not given, long-acting oral or depot |  | adverse event incidence | 0.9% |
| CCO[C@H]1CCN(Cc2c(OC)cc(C)c3[nH]ccc23)[C@H](c2ccc(C(=O)O)cc2)C1 |  | PNH patients, active haemolysis | oral, 100 mg, treatment |  | incidence reverse T3 increase | 14.3% |
| NC(=O)CCNC(=O)c1ccc(C2CCCCC2)cc1 | liver microsome stability | rat liver microsomes | 1 µM |  | hepatic clearance | 40 mL/min/kg |
| NC1(C(=O)N[C@@H](CCO)c2ccc(Cl)cc2)CCN(c2nc[nH]c3nccc2-3)CC1 |  | metastatic CRPC patients | 400 mg b.i.d., any grade, treatment-related, together with: enzalutamide 160 mg daily |  | incidence of blood creatinine increased | 14.3% |
| c1ncc(-c2ccc(C3CCCCC3)cc2)cn1 | liver microsome stability | human liver microsomes | 1 µM, without NADPH |  | hepatic clearance | 14 mL/min/kg |
| CCN1/C(=C/C(C)=O)Sc2ccc(F)cc21 |  | cynomolgus monkey | oral, 10 mg/kg, 1 h post-dose | baseline: pre-dose | heart rate change | 107 ± 18.9% |
| COc1ccc(/N=N/c2cccc(CN3CCC(C(=O)NC(C)(C)C)CC3)c2)cc1 |  | DMSO | 25 µM, 25 °C |  | absorption maximum, cis isomer | 444 nm |
| Cl.[2H]C([2H])([2H])CC(=O)c1cnc(NC(=O)C2CC2)cc1Nc1cccc(-c2ncn(C([2H])([2H])[2H])n2)c1OC | geometric mean | human | oral, 40 mg twice daily, day 1, fasted, tablet, multiple dose |  | AUC(0-tau) | 1570 ng·h/mL |
| O=C(O)CCC(=O)O.[2H]C([2H])([2H])Oc1cc(C)c2[nH]ccc2c1CN1CC[C@@H](C2CC2)C[C@H]1c1ccc(C(=O)O)cc1 |  | healthy Chinese subjects | 100 mg, single ascending dose |  | TEAE elevated blood triglycerides | 16.7% |
| N#CCC(=O)Nc1ccc([C@H]2[C@@H](F)[C@@H](F)C[C@@H](F)[C@H]2F)cc1 | liver microsome stability | human liver microsomes | 1 µM, without NADPH |  | hepatic clearance | 3.9 mL/min/kg |
| C[C@@H](Nc1cc(F)cc(F)c1)c1cc(C(=O)N(C)C)cc2c(=O)cc(N3CCOCC3)oc12 |  | advanced solid tumour patients | oral, 30 mg twice daily, continuous monotherapy |  | dose interruption due to AE | 50% |
